# Results gathered from unrelated publications.
# Each line is one published result; not all experiments were run side by side. “And” joins repeats or separate records; there may be more than shown. Numbers after ± are the reported error.
# gag-pol reverse transcriptase: Gag-Pol polyprotein, reverse transcriptase (gag-pol, Human immunodeficiency virus type 1 group M subtype B, UniProt P04585)
# CDC25B: M-phase inducer phosphatase 2 (CDC25B, Homo sapiens, UniProt P30305)
# KDM1A: Lysine-specific histone demethylase 1A (KDM1A, Homo sapiens, UniProt O60341)
# Heat shock protein 90 N-terminal domain: Heat shock protein 90, N-terminal domain (Plasmodium falciparum, UniProt Q8IC05)
# ALK: ALK tyrosine kinase receptor (ALK, Homo sapiens, UniProt Q9UM73)
# Ectonucleoside triphosphate diphosphohydrolase 1: Ectonucleoside triphosphate diphosphohydrolase 1 (Homo sapiens, UniProt P49961)
# Si: Sucrase-isomaltase, intestinal (Si, Rattus norvegicus, UniProt P23739)
# PARP1: Poly [ADP-ribose] polymerase 1 (PARP1, Homo sapiens, UniProt P09874)
Compound,target,test,system,setting,scale,inhibition
C=CC(=O)N1C[C@H](C)N(c2nc(OC[C@@]34CCCN3C[C@H](F)C4)nc3c(F)c(-c4ccc(F)c5sc(N)c(C#N)c45)c(C(F)(F)F)cc23)C[C@H]1C,"CDK8 (Homo sapiens, UniProt P49336)","binding, KINOMEscan",,1 µM,,93%
[2H]C([2H])([2H])c1ccnc2c1NC(=O)c1cccnc1N2C1CC1,gag-pol reverse transcriptase,"enzyme activity, inhibitor, ELISA",,10 µM,,> 85%
N#Cc1c(F)c(F)c2nc(SCc3ccc(Cl)c(Cl)c3)nc(N)c2c1F,CDC25B,"enzyme activity, inhibitor, fluorescence",,20 µg/mL,,99.6%
CCOc1c(C(C)(C)O)sc2cnc(Nc3ccc(N4CCC(N5CC6(COC6)C5)CC4)cc3OC)nc12,"TNK2 (Homo sapiens, UniProt Q07912)","enzyme activity, inhibitor",,0.1 µM,,68%
CC(C)CCC[C@@H](C)[C@H]1CC[C@H]2[C@@H]3CC=C4C[C@@H](OS(=O)(=O)O)CC[C@]4(C)[C@H]3CC[C@]12C,"F9 (Homo sapiens, UniProt P00740)","inhibitor, chromogenic substrate",,concentration not given,,no inhibition
CCNC(=O)Nc1ccc(OCCCOc2ccc(NC(=O)NCC)cc2)cc1,"Transcription antitermination protein NusB, with NusE (nusB, Bacillus subtilis, UniProt P54520)","protein-protein interaction, inhibitor, competitive ELISA",,"25 µM, 15 min preincubation, 37 °C, with: 200 nM GST-NusE",,59%
O=C(Nc1nc2ccccc2n1CCN1CCOCC1)c1cccc([N+](=O)[O-])c1,"IRAK1 (Homo sapiens, UniProt P51617)","enzyme activity, inhibitor",,10 µM,,100%
CCCCSc1nc(N)c2c(F)c(C#N)c(F)c(Cl)c2n1,CDC25B,"enzyme activity, inhibitor, fluorescence",,20 µg/mL,,99.5%
Cc1ccc(Nc2nc(SCc3cn(Cc4ccccc4Cl)nn3)nc(-c3ccccc3)c2C#N)cc1,KDM1A,"enzyme activity, inhibitor, fluorescence",,1 µM,,21.3%
O=C(CSc1nc2ccccc2[nH]1)N/N=C/c1cc2c(s1)CCCC2,"dxs (Deinococcus radiodurans, UniProt Q9RUB5)","enzyme activity, inhibitor",,120 µM,,13%
Cc1nn(CCO)c2ncc(C(=O)c3cc(Cl)ccc3O)cc12,Heat shock protein 90 N-terminal domain,"ligand displacement, FP",,10 µM,,93%
Cc1ccc(C(=O)Nc2cccc(C(F)(F)F)c2)cc1-c1ccc2c(-c3cnn(C4CC4)c3)n[nH]c2c1,ALK,,,1 µM,,93.5%
O=c1c(/C=N/NC(=S)N/N=C/c2ccccc2O)coc2ccccc12,potato tyrosinase,inhibitor,,"50 µM, 0 to 20 min, with: L-DOPA",baseline: control,< 10%
O=C(O)c1cccc(S(=O)(=O)N2CCOCC2)c1,Ectonucleoside triphosphate diphosphohydrolase 1,"enzyme activity, inhibitor, absorbance",,100 µM,,15%
Cc1cc(/C=C/C#N)cc(C)c1Oc1cc(Nc2ccc(C#N)cn2)nc2ccncc12,gag-pol reverse transcriptase,"enzyme activity, inhibitor, ELISA",,1 µM,,84.9%
N#Cc1c(F)c(F)c2c(N)nc(SCc3ccccc3)nc2c1F,CDC25B,"enzyme activity, inhibitor, fluorescence",,20 µg/mL,,98.2%
OC[C@H]1O[C@H](n2cc(COc3ccc(OCc4cn([C@H]5O[C@H](CO)[C@@H](O)[C@H](O)[C@H]5O)nn4)cc3)nn2)[C@H](O)[C@@H](O)[C@@H]1O,"GAA (Homo sapiens, UniProt P10253)","enzyme activity, inhibitor, fluorescence",,"1.43 mM, pH 4, lysate",,87% and > 66%
Cn1c2ccccc2c2cc(CNCCCn3ccnc3)ccc21,"DRD3 (Homo sapiens, UniProt P35462)","cell-free assay, inhibitor",,10 µM,,63.8%
O=C(O[C@@H]1Cc2c(O)cc(O)cc2O[C@@H]1c1ccc(O)c(O)c1)c1ccc(O)cc1,Si,"enzyme activity, inhibitor",rat intestinal brush border vesicles,10 µM,,41.2%
O=C1N[C@@H](CO)C[C@H](O)c2ccccc21 (relative stereo),PARP1,"enzyme activity, inhibitor",,10 µM,,0%
COC(=O)Nc1ccc2c(c1)c(Cc1ccc(C(=O)NS(=O)(=O)c3ccc(C(F)(F)F)cc3)cc1OC)cn2C,"Tumor necrosis factor receptor superfamily member 1A (Homo sapiens, UniProt P19438)","NF-κB reporter gene, luciferase reporter",HEK293 cells,"0.5 µM, 24 h, with: TNF 10 ng/mL",,32 to 40%
C[C@@H](N)C1CCN(S(=O)(=O)c2cccc3c(=O)[nH]ccc23)CC1,"ROCK1 (Homo sapiens, UniProt Q13464)","cell-free assay, competition with immobilised ligand",,10 µM,,> 95%
N#Cc1c(F)c(F)c2nc(SCc3ccccc3)nc(N)c2c1F,CDC25B,"enzyme activity, inhibitor, fluorescence",,20 µg/mL,,96.3%
O=C(O)c1cccc(S(=O)(=O)NC2CC2)c1,Ectonucleoside triphosphate diphosphohydrolase 1,"enzyme activity, inhibitor, absorbance",,100 µM,,25%
CCC(=O)N(C)c1ccc(Cl)c(Cl)c1,"HTR1A (Homo sapiens, UniProt P08908)","ligand displacement, radioligand",,10 µM,,20.7%
Oc1c(C(Nc2nc3ccccc3s2)c2cccc(OCc3ccccc3)c2)ccc2cccnc12 (stereo not shown),"Genome polyprotein, NS2B-NS3 protease (Dengue virus type 2, UniProt P14340)","enzyme activity, inhibitor, fluorogenic",,"10 µM, 0.1% CHAPS, with: Bz-Nle-Lys-Arg-Arg-AMC substrate",,87.3 ± 1.25%
CN=c1nc(-c2ccccc2)n(-c2ccccc2)s1,"Trypanothione synthetase (Trypanosoma cruzi, UniProt Q9GT49)","enzyme activity, inhibitor, absorbance",,25 µM,,43.4%
CCCCSc1nc(N)c2c(F)c(F)c(C#N)c(F)c2n1,CDC25B,"enzyme activity, inhibitor, fluorescence",,20 µg/mL,,96.6%
CCCCNC(=O)c1cccc(S(=O)(=O)NC2CC2)c1,Ectonucleoside triphosphate diphosphohydrolase 1,"enzyme activity, inhibitor, absorbance",,100 µM,,42%
O=C(O[C@@H]1Cc2c(O)cc(O)cc2O[C@@H]1c1cc(O)c(O)c(O)c1)c1cc(O)c(O)c(O)c1,Si,"enzyme activity, inhibitor",rat intestinal brush border vesicles,10 µM,,92.7%
O=[N+]([O-])c1cccc(S(=O)(=O)NC[C@@H](O)[C@@H]2CCc3cc(F)ccc3O2)c1,"PTGS1 (Ovis aries, UniProt P05979)","enzyme activity, inhibitor, absorbance",,100 µM,,47.7%
COc1ccc(-c2ocnc2-c2cc(Br)c(OC)c(OC)c2)cc1OCCCC(=O)NO,"HDAC6 (Homo sapiens, UniProt Q9UBN7)","enzyme activity, inhibitor, fluorescence",,10 µM,,90%
CCCCC(C)Sc1nc2c([nH]1)c(=S)n(C)c(=O)n2C (stereo not shown),"Nr3c1 (Rattus norvegicus, UniProt P06536)",reporter gene,T47D/A1-2,"10 µM, with: dexamethasone",,inactive
Cc1ccc(Nc2nc(SCc3cn(CC(=O)NC(=O)Nc4ccccn4)nn3)nc(-c3ccc(C)cc3)c2C#N)cc1,KDM1A,"enzyme activity, inhibitor, fluorescence",,1 µM,,94.8%
N#Cc1c(F)c(F)c2c(N)nc(SCc3ccc4ccccc4c3)nc2c1F,CDC25B,"enzyme activity, inhibitor, fluorescence",,20 µg/mL,,99%
CCCCCCCCCCCCCCCC(=O)N[C@@H](CCCCN)C(=O)N[C@@H](CCCCN)C(=O)N[C@@H](CO)C(=O)N[C@@H](CCCNC(=N)N)C(=O)N[C@@H](C)C(=O)N[C@@H](CC(C)C)C(=O)N[C@@H](Cc1ccccc1)C(N)=O,"F2R (Homo sapiens, UniProt P25116)","platelet aggregation, light transmittance aggregometry","human, platelet-rich plasma ex vivo","0.5 mg/kg, 14 days, with: SFLLRN 5 µM",baseline: baseline,32%
Cc1nc(CN(C)c2ncnc3c2cnn3CCO)cs1,Heat shock protein 90 N-terminal domain,"ligand displacement, FP",,10 µM,,97%
O=C1NCCC(O)c2cc(Cl)c(Cl)cc21 (stereo not shown),PARP1,"enzyme activity, inhibitor",,10 µM,,0%
"CC(=O)C12NC(C)(C)CC1(C)C(=O)C1=C2c2c(c3c4n2C(C)(C)CC2=C4C4(CC(C)(C)NC(C)(C4)C2=O)CC3(C)C)C(=O)C(C)(C)N1 (single isomer, unassigned; (-))","Voltage-dependent N-type calcium channel subunit alpha-1B (Homo sapiens, UniProt Q00975)","ion current, inhibitor, patch clamp",HEK-293T,10 µM,,8.63%
COc1cc(C(=O)NC2CCC(N3CCN(CC4CCC5(CCCC5)C4)CC3)CC2)c(F)cc1Nc1ncc2c(n1)N(C1CCCC1(F)F)CC(F)(F)C(=O)N2C (stereo not shown),ALK,"cell-free assay, TR-FRET",,10 µM,,0.91%
O=C(O[C@@H]1Cc2c(O)cc(O)cc2O[C@@H]1c1ccc(O)c(O)c1)c1cc(O)c(O)c(O)c1,Si,"enzyme activity, inhibitor",rat intestinal brush border vesicles,10 µM,,61.9%
COc1ccc(C(=O)N(O)Cc2ccccc2)cc1,"9-cis-epoxycarotenoid dioxygenase NCED1, chloroplastic (NCED1, Solanum lycopersicum, UniProt O24023)",enzyme activity,Escherichia coli extract,"100 µM, with: 9′-cis-neoxanthin",,no inhibition
COCCSc1nc(N)c2c(F)c(F)c(C#N)c(F)c2n1,CDC25B,"enzyme activity, inhibitor, fluorescence",,20 µg/mL,,78%
COC(=O)C1=CNC=C(C(=O)OC)C1c1ccc(F)c(C(F)(F)F)c1,"PGR (Homo sapiens, UniProt P06401)",cell-free assay,,3 µM,,40 to 60%
C[Si](C)(C)C[C@H](CN)CC(=O)O,"Voltage-dependent calcium channel subunit alpha-2/delta-1 (Rattus norvegicus, UniProt P54290)",[3H]gabapentin binding,rat cerebral cortex membranes,"6.25 µM, with: [3H]gabapentin 20 nM",,72%
CC(=O)c1cnc(N)nc1N1CC[C@H]1c1nn2ccc(Cl)c2c(=O)n1-c1ccccc1,"CACNA1H (Homo sapiens, UniProt O95180)","ion current, inhibitor",,3 µM,,< 10%
